Assay results from different studies.
Lines come from different studies, so protocols differ. ± marks the error that the study gave.

SMILES | assay | system | setting | how to read | quantity | value
CCCC[C@H](NC(=O)CCCCCCCNC(=O)c1ccc(NN)nc1)C(=O)N[C@H]1CC(=O)NCCCC[C@@H](C(N)=O)NC(=O)[C@H](Cc2c[nH]c3ccccc23)NC(=O)[C@H](CCCNC(=N)N)NC(=O)[C@@H](Cc2ccccc2)NC(=O)[C@H](Cc2c[nH]cn2)NC1=O [technetium-99m labelled] |  | B16/F1 melanoma-bearing C57 mice | 2 h post-injection |  | urinary clearance | ~88 % injected activity
C[C@H](NC(=O)CNC(=O)[C@H](CCC(=O)O)NC(=O)[C@H](CCC(=O)O)NC(=O)[C@H](CC(=O)O)NC(=O)[C@@H]1CCCN1C(=O)[C@H](Cc1ccccc1)NC(=O)[C@H](CS)NC(=O)[C@H](Cc1ccc(O)cc1)NC(=O)CCCNC(=O)CNC(=O)CNC(=O)[C@@H](C)NC(=O)CN)C(=O)N[C@@H](CS)C(=O)N[C@@H](Cc1ccc(O)cc1)C(N)=O [technetium-99m labelled] | radio-HPLC | human serum | 2 h, 37 °C, serum mix 1:10 v/v |  | radiochemical purity | 93.4 ± 1.78%
CSCC[C@H](NC(=O)[C@H](CC(C)C)NC(=O)[C@H](Cc1c[nH]cn1)NC(=O)CNC(=O)[C@@H](NC(=O)[C@H](C)NC(=O)[C@H](Cc1c[nH]c2ccccc12)NC(=O)[C@H](CCC(N)=O)NC(=O)CCCCCNC(=O)CNC(=O)CNC(=O)CNC(=O)CSC(C)=O)C(C)C)C(N)=O [technetium-99m labelled] |  | nude mouse, PC-3 xenograft, lung | 30 min |  | tissue uptake | 1.2 ± 0.32 %ID/g
N=C(N)NCCC[C@@H]1NC(=O)[C@H](CCCCNC(=O)CNC(=O)CNC(=O)CNC(=O)CC[C@H](NC(=O)CCOCCOCCOCCOCCNC(=O)CC[C@H](NC(=O)CN2CCN(CC(=O)O)CCN(CC(=O)O)CCN(CC(=O)O)CC2)C(=O)NCCOCCOCCOCCOCCC(=O)N[C@@H](CCC(=O)NCC(=O)NCC(=O)NCC(=O)NCCCC[C@@H]2NC(=O)[C@@H](Cc3ccccc3)NC(=O)[C@H](CC(=O)O)NC(=O)CNC(=O)[C@H](CCCNC(=N)N)NC2=O)C(=O)NCC(=O)NCC(=O)NCC(=O)NCCCC[C@@H]2NC(=O)[C@@H](Cc3ccccc3)NC(=O)[C@H](CC(=O)O)NC(=O)CNC(=O)[C@H](CCCNC(=N)N)NC2=O)C(=O)NCC(=O)NCC(=O)NCC(=O)NCCCC[C@@H]2NC(=O)[C@@H](Cc3ccccc3)NC(=O)[C@H](CC(=O)O)NC(=O)CNC(=O)[C@H](CCCNC(=N)N)NC2=O)NC(=O)[C@@H](Cc2ccccc2)NC(=O)[C@H](CC(=O)O)NC(=O)CNC1=O [indium-111 labelled] |  | athymic nude mice, female, U-87 MG glioma xenograft, tumour and liver | intravenous, 24 h | reference: tumour over liver | tumour to tissue ratio | 6.46 ± 1.33
CCCC[C@H](NC(=O)CNC(=O)CNC(=O)c1ccc(NN)nc1)C(=O)N[C@H]1CC(=O)NCCCC[C@@H](C(N)=O)NC(=O)[C@H](Cc2c[nH]c3ccccc23)NC(=O)[C@H](CCCNC(=N)N)NC(=O)[C@@H](Cc2ccccc2)NC(=O)[C@H](Cc2c[nH]cn2)NC1=O [technetium-99m labelled] |  | C57 mouse, B16/F1 melanoma-bearing | intravenous, 4 h | reference: tumour over lung | tissue uptake ratio | 55.1
CC(=O)O[C@H]1C(=O)[C@@]2(C)[C@H]([C@H](OC(=O)c3ccccc3)[C@]3(O)C[C@H](OC(=O)[C@H](OC(=O)CCC(=O)NCCCC[C@@H](NC(=O)[C@@H](Cc4ccccc4)NC(=O)[C@@H](Cc4ccccc4)NC(=O)Cc4ccc5ccccc5c4)C(=O)N[C@H](Cc4ccc(O)cc4)C(=O)O)[C@@H](NC(=O)c4ccccc4)c4ccccc4)C(C)=C1C3(C)C)[C@]1(OC(C)=O)CO[C@@H]1C[C@@H]2O | TEM | hydrogel | pH 7.4, added: alkaline phosphatase 1.0 U/mL |  | nanofiber width | 9 ± 2 nm
N=C(N)NCCC[C@@H]1NC(=O)[C@H](CCCCNC(=O)CC[C@H](NC(=O)CCOCCOCCOCCOCCNC(=O)CC[C@H](NC(=O)CN2CCN(CC(=O)O)CCN(CC(=O)O)CCN(CC(=O)O)CC2)C(=O)NCCOCCOCCOCCOCCC(=O)N[C@@H](CCC(=O)NCCCC[C@@H]2NC(=O)[C@@H](Cc3ccccc3)NC(=O)[C@H](CC(=O)O)NC(=O)CNC(=O)[C@H](CCCNC(=N)N)NC2=O)C(=O)NCCCC[C@@H]2NC(=O)[C@@H](Cc3ccccc3)NC(=O)[C@H](CC(=O)O)NC(=O)CNC(=O)[C@H](CCCNC(=N)N)NC2=O)C(=O)NCCCC[C@@H]2NC(=O)[C@@H](Cc3ccccc3)NC(=O)[C@H](CC(=O)O)NC(=O)CNC(=O)[C@H](CCCNC(=N)N)NC2=O)NC(=O)[C@@H](Cc2ccccc2)NC(=O)[C@H](CC(=O)O)NC(=O)CNC1=O [indium-111 labelled] |  | athymic nude mice, female, U-87 MG glioma xenograft, tumour and blood | intravenous, 1 h | reference: tumour over blood | tumour to tissue ratio | 34.7 ± 7.84
CCCC[C@H](NC(=O)CNC(=O)CNC(=O)CNC(=O)c1ccc(NN)nc1)C(=O)N[C@H]1CC(=O)NCCCC[C@@H](C(N)=O)NC(=O)[C@H](Cc2c[nH]c3ccccc23)NC(=O)[C@H](CCCNC(=N)N)NC(=O)[C@@H](Cc2ccccc2)NC(=O)[C@H](Cc2c[nH]cn2)NC1=O [technetium-99m labelled] |  | C57 mouse, B16/F1 melanoma, heart | intravenous, 2 h |  | uptake | 0.04 ± 0.03 %ID/g
N=C(N)NCCC[C@@H]1NC(=O)[C@H](CCCCNC(=O)CCOCCOCCOCCOCCNC(=O)CN2CCN(CC(=O)O)CCN(CC(=O)O)CCN(CC(=O)O)CC2)NC(=O)[C@@H](Cc2ccccc2)NC(=O)[C@H](CC(=O)O)NC(=O)CNC1=O [indium-111 labelled] |  | female athymic nude mice, intestine | intravenous, 3 µCi, 4 h, U-87 MG glioma xenograft |  | tissue uptake | 0.91 ± 0.16 %ID/g
CC(C)C[C@H](NC(=O)[C@@H]1CCCN1C(=O)[C@H](CCCCN)NC(=O)[C@@H](N)CO)C(=O)N1CCC[C@H]1C(=O)N[C@@H](CCC(=O)O)C(=O)N[C@H](C(=O)N[C@H](C(=O)N[C@@H](CC(=O)O)C(=O)N[C@@H](CCC(=O)O)C(=O)N[C@@H](Cc1ccc(O)cc1)C(=O)N[C@@H](Cc1cn(CCOCCOCCOCCNC(=O)CCc2ccc(O)c(CN(CCN(CC(=O)O)Cc3cc(CCC(=O)NCCCC[C@H](NC(=O)N[C@@H](CCC(=O)O)C(=O)O)C(=O)O)ccc3O)CC(=O)O)c2)nn1)C(=O)O)[C@@H](C)O)C(C)C [gallium-68 labelled] |  | NMRI nu/nu mice, LNCaP tumour, brain | 135.34 nmol/kg, low molar activity |  | standardized uptake value | 0.01 g/g
